Experimental data collected from several papers.
Compare with care: the assays were run in different laboratories. Numbers after ± are the reported error.

For `CCOc1ccc2ccc(=O)oc2c1`, the remaining compound was 95% (mouse liver microsomes; 1 µM, 60 min, pH 7.4, together with: without cofactors).
The remaining parent of `CCOC(=O)c1sc(Nc2ncccn2)nc1-c1ccccn1` is reported as 43.3 area % (mouse liver microsomes; 60 min).
The remaining activity of `CSCC[C@H](N)C(=O)N[C@H](CC(C)C)C(=O)N[C@@H](CCCNC(=N)N)C(=O)N[C@@H](Cc1c[nH]c2ccccc12)C(=O)N[C@@H](CO)C(=O)N[C@@H](CCCNC(=N)N)C(=O)N[C@@H](CCCCN)C(=O)N[C@@H](CC(C)C)C(=O)N1CCC[C@H]1C(=O)N[C@@H](CS)C(=O)N[C@H](C(=O)N[C@@H](CO)C(N)=O)C(C)C` is reported as 71 ± 2% (12G5 competition, SUP-T1 cells; human plasma; concentration not given, 2 h).
`N#Cc1ccc(Nc2nc(N)cc(Oc3c(F)cc(-c4ccc(C#N)cc4)cc3F)n2)cc1` gave a remaining compound of 93.8% (human plasma; 1 µM, 0.50 h, pH 7.4, 37 °C).
For `CC(C)C[C@@H]1NC(=O)CNC(=O)[C@H](CC(N)=O)NC(=O)[C@H](CCCNC(=N)N)NC(=O)[C@H]([C@@H](C)O)NC(=O)[C@@H]2CSSC[C@@H]3NC(=O)[C@H]([C@@H](C)O)NC(=O)CNC(=O)CNC(=O)[C@H](C(C)C)NC(=O)[C@@H]4CSSC[C@H](NC(=O)[C@H]([C@@H](C)O)NC(=O)[C@H](CSSC[C@H](NC(=O)[C@H](C(C)C)NC(=O)[C@@H]5CCCN5C1=O)C(=O)NCC(=O)N[C@@H](CCC(=O)O)C(=O)N[C@@H]([C@@H](C)O)C(=O)N4)NC(=O)CNC(=O)[C@@H]1CCCN1C(=O)[C@H]([C@@H](C)O)NC(=O)[C@H](CC(N)=O)NC3=O)C(=O)N[C@@H](CO)C(=O)N[C@@H](Cc1c[nH]c3ccccc13)C(=O)N1CCC[C@H]1C(=O)N[C@@H](C(C)C)C(=O)N2`, the remaining peptide was 89.9 ± 0.5% (HPLC; ammonium bicarbonate; 180 µM, 14 days, pH 9.0, 25 °C, deamidation stability).
The remaining activity of `CSCC[C@H](NC(=O)[C@H](CCCCN)NC(=O)[C@H](CCCNC(=N)N)NC(=O)[C@H](CO)NC(=O)[C@H](Cc1c[nH]c2ccccc12)NC(=O)[C@H](CCCNC(=N)N)NC(=O)[C@@H](CC(C)C)NC(=O)[C@@H](N)CCSC)C(=O)N1CCC[C@H]1C(=O)N[C@@H](CS)C(=O)N[C@H](C(=O)N[C@@H](CO)C(N)=O)C(C)C` is reported as 92 ± 21% (12G5 competition, SUP-T1 cells; human plasma; concentration not given, 2 h).
The remaining compound of `Cn1cncc1-c1c(F)cncc1NC(=O)c1c(N)nn2cc(F)cnc12` is reported as 111% (human EDTA plasma; 4000 ng/mL, 6 months, -80 °C).
`Cc1cc(C(=O)NC(C)(C)COc2cccc3c2C(N)=NS(=O)(=O)N3)cc(C)n1` — result for “remaining parent compound”: 100% (LC-MS; human liver microsomes; 10 µM, 20 min, pH 7.4, together with: NADPH; relative to: time 0).
`CC(C)C[C@@H]1NC(=O)[C@H](CCCCN)NC(=O)[C@H](CC(N)=O)NC(=O)[C@H](CCCNC(=N)N)NC(=O)[C@H]([C@@H](C)O)NC(=O)[C@@H]2CSSC[C@@H]3NC(=O)[C@H]([C@@H](C)O)NC(=O)CNC(=O)CNC(=O)[C@H](C(C)C)NC(=O)[C@@H]4CSSC[C@H](NC(=O)[C@H](CCCCN)NC(=O)[C@H](CSSC[C@H](NC(=O)[C@H](C(C)C)NC(=O)[C@@H]5CCCN5C1=O)C(=O)NCC(=O)N[C@@H](CCC(=O)O)C(=O)N[C@@H]([C@@H](C)O)C(=O)N4)NC(=O)CNC(=O)[C@@H]1CCCN1C(=O)[C@H]([C@@H](C)O)NC(=O)[C@H](CC(N)=O)NC3=O)C(=O)N[C@@H](CO)C(=O)N[C@@H](Cc1c[nH]c3ccccc13)C(=O)N1CCC[C@H]1C(=O)N[C@@H](C(C)C)C(=O)N2` has a remaining peptide of 99.5 ± 0.4% (HPLC; ammonium bicarbonate; 180 µM, 7 days, pH 9.0, 25 °C, deamidation stability).
For `CC(C)C[C@H](NC(=O)[C@H](N)C(C)C)C(=O)N[C@@H](CCCNC(=N)N)C(=O)N[C@@H](Cc1c[nH]c2ccccc12)C(=O)N[C@@H](CO)C(=O)N[C@@H](CCCNC(=N)N)C(=O)N[C@@H](CCCCN)C(=O)N[C@@H](CC(C)C)C(=O)N1CCC[C@H]1C(=O)N[C@@H](CS)C(=O)N[C@H](C(=O)N[C@@H](CO)C(N)=O)C(C)C`, the remaining activity was 60 ± 4% (12G5 competition, SUP-T1 cells; human plasma; 20 µM, 8 h, 37 °C).
With `CC[N+]1(C)CCN(c2ccc(NC(=O)c3cccc(C)n3)cc2)CC1` the remaining compound was 96.8% (pooled BALB/c mouse plasma; 1 µM, 0.1667 h).
Under “remaining parent compound”, `O=C1CC2(CCCC2)CC(=O)N1CCCCN1CCN(c2ncccn2)CC1` is recorded as 41% (LC-MS; Sprague-Dawley rat liver microsomes; 10 µM, 60 min, pH 7.4, together with: NADPH; relative to: time 0).
`CSCC[C@H](NC(=O)CN)C(=O)N[C@@H](CCCNC(=N)N)C(=O)N[C@@H](Cc1c[nH]c2ccccc12)C(=O)N[C@@H](CO)C(=O)N[C@@H](CCCNC(=N)N)C(=O)N[C@@H](CCCCN)C(=O)N[C@@H](CCSC)C(=O)N1CCC[C@H]1C(=O)N[C@@H](CS)C(=O)N[C@H](C(=O)N[C@@H](CO)C(N)=O)C(C)C` has a remaining activity of 43 ± 3% (12G5 competition, SUP-T1 cells; human plasma; 20 µM, 2 h, 37 °C).

Repeated from above:
With `CC[N+]1(C)CCN(c2ccc(NC(=O)c3cccc(C)n3)cc2)CC1` the remaining compound was 96.8% (pooled BALB/c mouse plasma; 1 µM, 0.1667 h).
Under “remaining parent compound”, `O=C1CC2(CCCC2)CC(=O)N1CCCCN1CCN(c2ncccn2)CC1` is recorded as 41% (LC-MS; Sprague-Dawley rat liver microsomes; 10 µM, 60 min, pH 7.4, together with: NADPH; relative to: time 0).
